Experimental data gathered from unrelated publications.
Protocols differ between the studies behind these lines. Several values in a cell are separate wells, animals, samples, runs or records. Numbers after ± are the reported error.
UniProt Q16853, sequence (whole entry, looked up): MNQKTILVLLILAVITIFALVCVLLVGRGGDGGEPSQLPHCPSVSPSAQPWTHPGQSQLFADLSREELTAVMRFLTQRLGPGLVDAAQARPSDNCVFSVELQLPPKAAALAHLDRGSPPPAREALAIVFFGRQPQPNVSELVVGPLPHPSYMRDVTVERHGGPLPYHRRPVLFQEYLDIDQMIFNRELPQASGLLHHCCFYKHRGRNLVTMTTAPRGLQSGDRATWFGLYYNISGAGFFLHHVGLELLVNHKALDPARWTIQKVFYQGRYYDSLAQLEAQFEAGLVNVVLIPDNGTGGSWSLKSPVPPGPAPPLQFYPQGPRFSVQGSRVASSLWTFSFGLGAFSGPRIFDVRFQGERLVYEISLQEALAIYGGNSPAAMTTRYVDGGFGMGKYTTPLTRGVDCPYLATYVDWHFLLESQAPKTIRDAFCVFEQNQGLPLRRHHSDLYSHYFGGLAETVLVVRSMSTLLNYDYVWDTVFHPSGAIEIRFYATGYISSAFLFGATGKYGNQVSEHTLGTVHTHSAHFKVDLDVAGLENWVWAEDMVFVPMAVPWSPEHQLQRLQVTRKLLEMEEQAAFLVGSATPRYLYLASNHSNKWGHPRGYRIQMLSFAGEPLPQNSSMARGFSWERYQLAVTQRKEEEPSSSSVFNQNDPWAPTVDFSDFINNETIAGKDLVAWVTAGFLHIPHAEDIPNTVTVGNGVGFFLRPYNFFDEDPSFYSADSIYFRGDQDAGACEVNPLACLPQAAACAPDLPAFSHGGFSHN

Compound = CC(=O)Nc1cccc(-n2c(=O)n(C3CC3)c(=O)c3c(Nc4ccc(I)cc4F)n(C)c(=O)c(C)c32)c1; target or system = MeWo; test = resazurin; setting = concentration not given, 72 h, unit not given; scale = baseline: DMSO; endpoint = viability; value = 0.882 and 0.541 and 0.973 and 0.722 and 0.525 and 0.956
Compound = Cc1cnc(Nc2ccc(OCCN3CCCC3)cc2)nc1Nc1cccc(S(=O)(=O)NC(C)(C)C)c1; target or system = MDCK; setting = 1 µM, 90 min, pH 6.5 apical, 7.4 basolateral; endpoint = Papp A to B; value = 3.1 nm/s
Compound = CC[C@H](CO)N(CCN(N=O)[C@H](CC)CO)N=O; target or system = Salmonella typhimurium; test = plate incorporation; test system = TA1535, water; setting = 3750 µg/plate, without S9 test 2; endpoint = revertant colonies per plate; value = 25.7 ± 10
Compound = Cn1cc(-c2ccc(-c3cncc(Cl)c3N3CCC4(CCNC4=O)CC3)cc2)cn1; target or system = COLO 205; test = gene expression, microarray, refers to: EGLN3 mRNA; setting = concentration not given, 6 h; scale = baseline: untreated cells; endpoint = log2 fold change; value = 2.52
Compound = Cc1cc(Nc2ccc(S(F)(F)(F)(F)F)cc2)n2nc(C(C)(F)F)nc2n1; target or system = Plasmodium vivax; test = 12-lead ECG; test system = malaria patients; setting = oral, 400 mg, increase above 30 ms; endpoint = patients with QTcB increase; value = 0%
Compound = N[C@@H](CS)C(=O)O; target or system = Escherichia coli; test system = MG1655, M9 medium; setting = 1 mM, 1 mM equimolar amino acid mixture; endpoint = uptake half-time; value = 4.9 h
Compound = CC(=O)Nc1ccc(O)cc1; target or system = MDCK; setting = 1 µM, 90 min, pH 6.5 apical, 7.4 basolateral, apical to basolateral; endpoint = mass recovery; value = 85 ± 5%
Compound = CCOc1c([C@H](C)n2nc(C)c3c(N)ncnc32)cc(Cl)c(F)c1[C@@H]1CNC(=O)C1; test system = patients, monotherapy; setting = oral, 30 mg once daily, cycle 1 day 1; endpoint = AUC(0-last) geometric mean; value = 13.1 µM·h
Compound = CC(C)n1nccc1-c1ncccc1COc1cccc(O)c1C=O; target or system = MDCK; setting = 1 µM, 90 min, pH 7.4 apical, 7.4 basolateral, apical to basolateral; endpoint = mass recovery; value = 85 ± 5%
Compound = Cc1cc(N)c2c(OCC(C)(C)C(=O)NC(C)C)cccc2n1; target or system = Salmonella typhimurium; test = reverse mutation, plate incorporation; test system = TA98; setting = 1 µg/plate, without S9; endpoint = mean revertant colonies; value = 24 colonies/plate
Compound = CCn1c(=O)c2c(nc(/C=C/c3ccc(OC)c(OC)c3)n2C)n(CC)c1=O; target or system = MDCK; setting = 1 µM, 90 min, pH 6.5 apical, 7.4 basolateral, basolateral to apical; endpoint = mass recovery; value = 78 ± 5%
Compound = CC(=O)OCc1nn(C)c2nc(N)[nH]c(=O)c2c1=O; target or system = Escherichia coli; test = LC-MS/MS; test system = BW25113; setting = 100 µM, 10 min, 37 °C; endpoint = intracellular accumulation; value = 5.79 µM
Compound = Cc1ncc(CO)c(C=O)c1O; target or system = HCT-8 infected with Cryptosporidium parvum; test = Hoechst nuclei count; setting = 1 mM, 24 h; scale = baseline: PBS; endpoint = host cell number; value = 0.892 ± 0.044
Compound = Cc1cc(C(=O)NC(C)(C)COc2cccc3c2C(N)=NS(=O)(=O)N3)cc(C)n1; target or system = human peripheral blood lymphocytes; test = CBPI, concurrent micronucleus test; setting = 1000 µg/mL, 4 h; scale = baseline: vehicle control; endpoint = cytotoxicity; value = -6%
Compound = C[C@@H](c1ncncc1F)[C@](O)(Cn1cncn1)c1ccc(F)cc1F; target or system = MDCK; setting = 1 µM, 90 min, pH 6.5 apical, 7.4 basolateral; endpoint = Papp A to B; value = 505 nm/s and 430 nm/s
Compound = NC(=O)CC[C@H](N)C(=O)O; target or system = Escherichia coli; test system = MG1655, M9 medium; setting = 1 mM, 1 mM equimolar amino acid mixture; endpoint = uptake half-time; value = 11.3 h
Compound = CCN1/C(=C/C(C)=O)Sc2ccc(F)cc21; test system = cynomolgus monkey; setting = oral, 10 mg/kg, 6 h post-dose; endpoint = QT interval; value = 251 ± 34 ms
Compound = NCc1cc2c(cc1F)C(=O)N(C1CCC(=O)NC1=O)C2 (stereo not drawn); target or system = Amine oxidase [copper-containing] 3 (AOC3, Homo sapiens, UniProt Q16853); test = LC-MS/MS; test system = cirrhotic human liver lysate; setting = 1.95 µM, 60 min, pH 7.4, 37 °C; endpoint = concentration; value = 0.308 µg/mL and 0.341 µg/mL
